Measured values pooled from the literature.
Parts stem from different laboratories: compare values within a part only.

Series 1 — technique: Spec-seq; molecule type: double-stranded DNA, one strand shown; matrix: in vitro; tested at: not given; setting: whole probe, mean of replicates; relative to: not given; reading: lower = stronger binding; endpoint: relative binding energy; shared flanks, not repeated: GAGTCGTCTCGTCAGCAC … CCGTAGAGCACTCAGGTC
Target: Transcription factor SOX-2, HMG box (Sox2, Mus musculus, UniProt P48432, residues 41-119)
Sequence of UniProt P48432 (41-119, looked up): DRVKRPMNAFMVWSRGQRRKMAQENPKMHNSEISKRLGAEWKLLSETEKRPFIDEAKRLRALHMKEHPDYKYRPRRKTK
AGGAGTT: 0.982 ln ratio
CATGGAG: -0.0039 ln ratio
AGGCGTT: 1.32 ln ratio
TCCGGTT: 1.22 ln ratio
CATAGGA: -0.558 ln ratio
CATAGTG: -0.87 ln ratio
CATGAAG: -0.118 ln ratio
CATGCGT: 0.48 ln ratio

Series 2 — technique: aptamer microarray, sandwich; molecule type: DNA with 2'F-ANA; matrix: in vitro; tested at: 200 nM; with: Cy3 exosite-II aptamer, 400 nM; reading: higher = stronger binding; endpoint: mean fluorescence intensity; oligonucleotide: GGTTGGTGTGGTTGG
Target: Prothrombin, mature alpha-thrombin (F2, Homo sapiens, UniProt P00734)
Setting: whole 15-mer aptamer, many near background
2'F-ANA at 2 3 6 7 9: 656 a.u.
2'F-ANA at 2 5 6 7 8 9 13 15: 56.6 a.u.
2'F-ANA at 3 4 7 8 9 11 14 15: 326 a.u.
2'F-ANA at 5 6 8 9 11 12 13 15: 94.6 a.u.
2'F-ANA at 3 4 6 9 10 12 14 15: 183 a.u.
2'F-ANA at 2 3 7 8 10 15: 423 a.u.
2'F-ANA at 2 4 6 8 13 14 15: 84.7 a.u.
2'F-ANA at 1 2 4 5 8 11 12 14 15: 43.9 a.u.

Series 3 — technique: Sort-seq; item: YFP reporter; matrix: E. coli; setting: PhoQ-PhoP variant library; with: 10 µM Mg2+; relative to: high Mg2+ state; reading: higher = stronger signaling; endpoint: fold induction
Molecule: PhoQ, residues 284 288 289 292 302 303 SLGVVW
PhoP, residues 12 14 15 18 19 TPWTL (Escherichia coli, UniProt P23836): 23.1
PhoP, residues 12 14 15 18 19 NFFVT (Escherichia coli, UniProt P23836): 10.9
PhoP, residues 12 14 15 18 19 VGHWL (Escherichia coli, UniProt P23836): 0.646

Other studies, line by line
COc1cc(C(=O)N2CCC(N3CCN(C)CC3)CC2)ccc1Nc1ncc2c(n1)N(C)c1ccccc1C(=O)N2C — inhibition (mouse CaMK1α; probe labelling, KiNativ ADP probe; mouse brain lysate; 1 µM, LYS1 site LVAIkCIAK): -2.1%
